# Assay results of several laboratories.
# Numbered parts are unrelated; each lists some results of a single study. Changes are numbered by the printed parent chain.

# Set 1
# Target: Prothrombin, mature alpha-thrombin (F2, Homo sapiens, UniProt P00734)
# Technique: aptamer microarray, sandwich
# Molecule type: DNA with 2'F-ANA
# Sample: in vitro
# Tested at: 200 nM
# Notes: whole 15-mer aptamer, many near background
# Added: Cy3 exosite-II aptamer, 400 nM
# Direction: higher = stronger binding
# Oligonucleotide: GGTTGGTGTGGTTGG
Modification,mean fluorescence intensity
2'F-ANA at 1 2 3 4 6 7 14 15,63.4 a.u.
2'F-ANA at 3 5 6 7 8 10 14 15,76.3 a.u.
2'F-ANA at 5 6 7 9 11 12 14 15,73.3 a.u.
2'F-ANA at 5 6 7 14 15,40.7 a.u.
2'F-ANA at 1 3 6 7 8 9 10,86.7 a.u.
2'F-ANA at 2 3 4 6 10 11 14,160 a.u.
2'F-ANA at 1 3 4 5 7 12 14 15,65.1 a.u.
2'F-ANA at 1 3 4 6 9 10 13 14,62 a.u.
2'F-ANA at 3 4 5 8 9 11 14 15,49.7 a.u.
2'F-ANA at 2 3 4 6 7 9 13 15,270 a.u.
2'F-ANA at 1 2 7 12 15,338 a.u.
2'F-ANA at 2 7 8 9 15,506 a.u.
2'F-ANA at 1 2 3 4 5 8 12 15,120 a.u.
2'F-ANA at 5 7 8 9 10 11 12 13 14 15,44.7 a.u.
2'F-ANA at 2 3 5 6 8 10 13 14 15,60 a.u.
2'F-ANA at 3 5 6 7 11 13,78 a.u.
2'F-ANA at 2 4 5 6 7 9 10 11 12 13 14 15,44.7 a.u.
2'F-ANA at 3 4 5 7 10 11 13 14,68.9 a.u.
2'F-ANA at 2 3 5 6 7 9 10 12 14,48.4 a.u.
2'F-ANA at 1 2 5 6 9 10 11 13 14,50.1 a.u.
2'F-ANA at 2 5 7 9 11 15,59 a.u.
2'F-ANA at 2 8 9 12 13 14 15,170 a.u.

# Set 2
# Target: Interferon regulatory factor 5, full length, phosphomimetic (IRF5, Homo sapiens, UniProt Q13568-2, residues 1-514, K96S/S451D/S453D/S456D/S462D)
# Technique: protein-binding microarray
# Molecule type: double-stranded DNA, one strand shown
# Sample: in vitro
# Tested at: 250 nM
# Notes: 60-bp whole probe
# Added: salmon DNA 0.4 mg/ml
# Reference: random background probes
# Direction: higher = stronger binding
# All sequences stand within: GCCTAGCAC … GTCTTGATTCGCTTGACGCTGCTG
Oligonucleotide,log fluorescence
TTAGATTTAAGTATCGATTAGTGCTAG,7.34 z-score
GAGGGTATCGACTATCGGGACGTGCTA,2.86 z-score
TTAGGACTGCTTATCCCTTAGTGCTAG,-0.322 z-score
AGTGTTTGCCCTATTTAAGAGTGCTAG,0.0129 z-score
GACGGTATCGGGACTGGCGACGTGCTA,1.08 z-score
GACGGATTGGGTTTCGGGACGTGCTAG,2.67 z-score
TTAGGACTGCTACTGTTTTAGTGCTAG,-0.0469 z-score
GACTGTATCGACTATCGGGACGTGCTA,4.14 z-score
GACGATATCGGGTATCGAGACGTGCTA,2.7 z-score
TCAACTATTGCTTCCTCACTGTGCTAG,0.83 z-score
TCATCTCTGCTTCTGTAACTGTGCTAG,0.395 z-score
TCAAAAATAGAAACTCGTACTGTGCTA,1.17 z-score
TTTGATCTCAGTCTCGATTAGTGCTAG,1.08 z-score
GACAGTATCGGACTGGGGACGTGCTAG,2.31 z-score
TCAGTCTTCCCCATCTTACTGTGCTAG,0.151 z-score
GACGGTTTGGGGACTGGGGACGTGCTA,-0.0308 z-score
TAAGGTTTCGGTTTCGGTTAGTGCTAG,12 z-score
TTAGGTCTCCTACTCCTTTAGTGCTAG,-0.128 z-score
GACGATATCAGTAGCGAGACGTGCTAG,0.743 z-score
GACGGTATCCTTATACTGACGTGCTAG,-0.12 z-score
TTAGGTTTGCTTATCCTTTAGTGCTAG,0.0301 z-score
CTAGGTTTCGGACTGGGTTAGTGCTAG,4.44 z-score
ATAGGTTTCGGGTATCGGTTAGTGCTA,9.43 z-score
TTAGGTTTCGACTTTAGGTTAGTGCTA,6.72 z-score

# Set 3
# Target: ABI1, truncated, D143A, DHFR fusion (Arabidopsis thaliana)
# Technique: DHFR PCA, deep sequencing
# Sample: yeast
# Notes: methotrexate growth selection, single substitutions
# Added: (+)-ABA 17 µM
# Reference: wild-type fitted maximum
# Direction: higher = stronger binding
# Starting sequence: PYL1, truncated, DHFR fusion (Arabidopsis thaliana); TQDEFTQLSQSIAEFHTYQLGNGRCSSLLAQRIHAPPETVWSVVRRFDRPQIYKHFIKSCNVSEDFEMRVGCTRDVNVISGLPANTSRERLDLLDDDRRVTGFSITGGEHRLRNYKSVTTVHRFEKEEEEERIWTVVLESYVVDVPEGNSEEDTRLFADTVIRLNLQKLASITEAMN
Change,relative binding score [%]
L166D,-9.97
V118Y,29.2
V43D,-3.77
N61Q,87.2
S87H,5.76
S63E,85.5
D65P,87.5
Y141V,-2.18
N165E,-8.22
D75M,88.9
K126P,92
T1K,83.6

# Set 4
# Target: CEP164, C-terminal peptide (human)
# Technique: DHFR complementation, deep sequencing
# Sample: yeast
# Notes: single substitutions, model-inferred values
# Reference: wild type
# Direction: higher = weaker binding
# Starting sequence: PDZK1, PDZ domain 2 (human); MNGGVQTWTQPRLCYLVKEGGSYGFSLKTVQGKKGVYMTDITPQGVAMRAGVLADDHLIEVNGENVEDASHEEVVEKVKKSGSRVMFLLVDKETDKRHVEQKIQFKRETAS; partner HNRVKVYRF
Change,binding free energy change
Q44K,0.05 kcal/mol
T42V,-0.219 kcal/mol
Y15V,-0.0893 kcal/mol
Y37K,0.82 kcal/mol
E108L,-0.187 kcal/mol
L58Q,0.363 kcal/mol
T39V,0.121 kcal/mol
E108P,-0.0756 kcal/mol
V52S,1.72 kcal/mol
D40I,0.695 kcal/mol
G82A,0.568 kcal/mol
L16D,1.57 kcal/mol
M38N,1.48 kcal/mol
A54Q,-0.228 kcal/mol
V90G,-0.19 kcal/mol
K80C,0.577 kcal/mol
S22F,-0.0314 kcal/mol
L27D,0.647 kcal/mol

# Set 5
# Target: CCND2, cyclin fold, Cln2 fusion (human)
# Technique: yeast growth competition, sequencing
# Sample: yeast
# Notes: weak parent motif
# Reference: not given
# Direction: higher = stronger binding
# Starting sequence: SCAPER docking peptide (human); SNARRSLNFGGST
Change,normalised enrichment score
T13V,0.592
S6W,0.399
A3E,0.0788
N8G,0.132
L7S,0.157
T13Y,0.345
S1L,0.354
F9D,0.177
G11D,0.588
G10S,0.249
L7A,0.354
S12A,0.625
T13E,0.548
R4K,0.394
S1D,0.304
N8L,-0.0611
S6G,0.417
R5Q,0.327
N8S,0.766
R5D,0.0946
G10P,0.462
R5G,-0.383
F9N,-0.465
N2F,0.658
S12Y,0.439

# Set 6
# Target: Sal-like protein 4, full length isoform B (SALL4, Homo sapiens, UniProt Q9UJQ4-2, residues 1-616)
# Technique: universal PBM
# Molecule type: double-stranded DNA, one strand shown
# Sample: in vitro
# Tested at: not given
# Notes: 8-mer, flanks averaged, mean of replicates
# Direction: higher = stronger binding
Oligonucleotide,E-score
AAATGCGA,0.163
AGGTGTCG,-0.16
GCTCGGAC,-0.266
GATTCTGC,-0.0576
GGCAAACC,-0.191
ACCCTCAA,0.0926
CCGCCTTC,-0.203
ACGGCTCA,-0.167
CTAAATTC,0.122
AGCTGTCG,-0.141
ATGCCTAC,-0.0299
CCCGACGG,-0.187
AAACGATC,0.202
CAGGGTGG,-0.0708
CTTTCGTA,0.112
AGTTACCC,-0.0131
GCATCAGC,-0.139
AATTTTTC,0.285
AATCCAAG,0.046
GTGGGGAA,0.0247
GAAGTTGC,-0.241

# Mixed results
Molecule,target,test,test system,setting,scale,endpoint,result
"PhoQ, residues 284 288 289 292 302 303 SSTLLI","PhoP, residues 12 14 15 18 19 SEGLL (Escherichia coli, UniProt P23836)","Sort-seq, item: YFP reporter",E. coli,"PhoQ-PhoP variant library, added: 10 µM Mg2+","reference: high Mg2+ state, higher = stronger signaling",fold induction,8.03

# Repeated from above (set 2):
Oligonucleotide,log fluorescence
GACGGTTTGGGGACTGGGGACGTGCTA,-0.0308 z-score
TAAGGTTTCGGTTTCGGTTAGTGCTAG,12 z-score
TTAGGTCTCCTACTCCTTTAGTGCTAG,-0.128 z-score
GACGATATCAGTAGCGAGACGTGCTAG,0.743 z-score
GACGGTATCCTTATACTGACGTGCTAG,-0.12 z-score
TTAGGTTTGCTTATCCTTTAGTGCTAG,0.0301 z-score
CTAGGTTTCGGACTGGGTTAGTGCTAG,4.44 z-score
